Results pooled from the literature.
Parts stem from different laboratories: compare values within a part only.

Sample 1
Target: Ras GTPase-activating protein-binding protein 1, full length (G3BP1, Homo sapiens, UniProt Q13283)
UniProt Q13283, sequence (whole entry, looked up): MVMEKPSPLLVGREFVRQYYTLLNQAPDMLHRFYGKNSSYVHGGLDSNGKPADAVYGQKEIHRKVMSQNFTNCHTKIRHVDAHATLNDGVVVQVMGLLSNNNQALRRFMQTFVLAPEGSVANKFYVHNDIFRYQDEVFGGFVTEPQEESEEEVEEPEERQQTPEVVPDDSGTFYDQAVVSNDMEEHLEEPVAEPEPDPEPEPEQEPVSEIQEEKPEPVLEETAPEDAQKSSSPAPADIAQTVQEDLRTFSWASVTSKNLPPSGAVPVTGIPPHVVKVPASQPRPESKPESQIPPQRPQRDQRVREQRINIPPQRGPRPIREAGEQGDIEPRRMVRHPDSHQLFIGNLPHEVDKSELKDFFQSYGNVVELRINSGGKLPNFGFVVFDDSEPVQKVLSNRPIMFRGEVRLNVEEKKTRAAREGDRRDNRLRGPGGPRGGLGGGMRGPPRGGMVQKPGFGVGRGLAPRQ
Technique: RNA Bind-n-Seq
Molecule type: RNA
Medium: in vitro
Tested at: 200 nM
Notes: whole 134-nt RNA, ends assumed
With: 150 mM KCl
Baseline: input library
Direction: higher = stronger binding
All sequences stand within: GGGAGUUCUACAGUCCGACGAUC … UGGAAUUCUCGGGUGUCAAGG
Oligonucleotide	log2 enrichment
CAAGUCCUGUGCUACACAUCGUAUGUACCGAAUCGGGUUUGGGUUUGGGAAAGGGAAAGUAUUAUGUUACGCCGUUCGGAUCUGCACUUC	0.668
UCAAGUCCUGUGCUACACAUCGUAUGUACCGAAUCGGUUUUUGGAAAAAGGUGGAAAGUAUUAUGUUACGCCGUUCGGAUCUGCACUUCC	-0.749
GUCCUGUGCUACACAUCGUAUGUACCGAAUCGGGAAAGGGUUUUUGGGUUUUUUUGGGAAAGUAUUAUGUUACGCCGUUCGGAUCUGCAC	-0.491
UCCUGUGCUACACAUCGUAUGUACCGAAUCGGAAAAAAGGGAAAAAAGGGAAAAAAGGGGAAAGUAUUAUGUUACGCCGUUCGGAUCUGC	-0.569
CAAGUCCUGUGCUACACAUCGUAUGUACCGAAUCGGUUUUUGGUUUUUUUGGAGGAAAGUAUUAUGUUACGCCGUUCGGAUCUGCACUUC	-0.737
GCAGGAAGUAAAAACAAAUGGAAAUGCUUCGGAUAGUGGCAGGGGUGGGGGUUGCUAAGGAAAGGGUGGGAUGGGAGUGGGUAAAGAGUU	1.02
AAGUCCUGUGCUACACAUCGUAUGUACCGAAUCGGGAAAGGGUUUUUGGGUUUGGGAAAGUAUUAUGUUACGCCGUUCGGAUCUGCACUU	0.176
AGUCCUGUGCUACACAUCGUAUGUACCGAAUCGGGUUUGGGAAAGGGUUUUUUUGGGAAAGUAUUAUGUUACGCCGUUCGGAUCUGCACU	-0.158
UCAAGUCCUGUGCUACACAUCGUAUGUACCGAAUCGGAAAGGGAAAGGAAAGGGGAAAGUAUUAUGUUACGCCGUUCGGAUCUGCACUUC	-0.814
CCUGUGCUACACAUCGUAUGUACCGAAUCGGUUUUUUUGGGUUUUUUUGGGUUUUUUUGGAAAGUAUUAUGUUACGCCGUUCGGAUCUGC	-0.771
AGUCCUGUGCUACACAUCGUAUGUACCGAAUCGGAAAAAGGGAAAAAGGGAAAAAGGGAAAGUAUUAUGUUACGCCGUUCGGAUCUGCAC	-1.03
CAAGUCCUGUGCUACACAUCGUAUGUACCGAAUCGGGUUUUGGGUUUUGGUUUUGGAAAGUAUUAUGUUACGCCGUUCGGAUCUGCACUU	-1.04
UGUGCUACACAUCGUAUGUACCGAAUCGGGGAAAAAAAGGGGAAAAAAAGGGGAAAAAAAGGGAAAGUAUUAUGUUACGCCGUUCGGAUC	-0.439
CCUCAAGUCCUGUGCUACACAUCGUAUGUACCGAAUCGGAGGGGAGGAGGGGAAAGUAUUAUGUUACGCCGUUCGGAUCUGCACUUCCAG	0.443

Sample 2
Target: Eukaryotic initiation factor 4A-I (EIF4A1, Homo sapiens, UniProt P60842, residues 1-406, full length assumed)
UniProt P60842, sequence (whole entry, looked up): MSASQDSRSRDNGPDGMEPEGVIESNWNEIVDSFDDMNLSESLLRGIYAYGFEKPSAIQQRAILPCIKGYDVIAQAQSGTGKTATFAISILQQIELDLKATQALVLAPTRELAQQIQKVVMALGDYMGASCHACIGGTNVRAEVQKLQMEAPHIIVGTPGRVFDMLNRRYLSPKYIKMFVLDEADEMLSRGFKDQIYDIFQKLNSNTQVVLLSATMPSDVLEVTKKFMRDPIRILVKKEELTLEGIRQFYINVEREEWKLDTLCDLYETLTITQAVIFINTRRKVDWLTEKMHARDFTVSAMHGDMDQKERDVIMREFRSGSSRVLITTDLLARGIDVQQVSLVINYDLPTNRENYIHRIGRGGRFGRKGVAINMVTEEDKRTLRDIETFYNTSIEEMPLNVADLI
Technique: RNA Bind-n-Seq
Molecule type: RNA
Medium: in vitro
Tested at: 15 pmol
Notes: 4-mer, random 30-nt RNA, single round
With: 3 µM DMDA-PatA, 2 mM AMP-PNP
Baseline: input library
Direction: higher = stronger binding
Oligonucleotide	4-mer enrichment
UUGG	1.31 fold
GCUA	1.42 fold
CAUG	0.985 fold
ACAA	0.695 fold
AUCU	0.993 fold
CUCC	0.448 fold
CUAG	1.47 fold
GUAG	1.68 fold
UAGA	1.27 fold
GCCA	0.55 fold
AGGC	0.935 fold
CACG	0.633 fold
AAUA	0.909 fold
AAUC	0.762 fold
GGCA	0.97 fold
GGCC	0.651 fold

Sample 3
Target: Prothrombin, mature alpha-thrombin (F2, Homo sapiens, UniProt P00734)
Technique: aptamer microarray, sandwich
Molecule type: DNA with 2'F-ANA
Medium: in vitro
Tested at: 200 nM
Notes: whole 15-mer aptamer, many near background
With: Cy3 exosite-II aptamer, 400 nM
Direction: higher = stronger binding
Oligonucleotide: GGTTGGTGTGGTTGG
Modification	mean fluorescence intensity [a.u.]
2'F-ANA at 1 2 4 5 7 8 10 12 13	61.2
2'F-ANA at 1 3 8 11 12 14	145
2'F-ANA at 5 6 7 8 9 11 12 13 15	88.2
2'F-ANA at 1 3 5 6 7 10 11 12	49.6
2'F-ANA at 1 3 4 5 8 12 13	132
2'F-ANA at 1 3 4 8 9 10 15	59.1
2'F-ANA at 1 4 7 9 11 12 14	67.3
2'F-ANA at 2 5 7 8 9 10 12 13 14	47.1
2'F-ANA at 3 6 7 9 15	921
2'F-ANA at 1 2 6 9 10 11 12 13 14 15	60.2
2'F-ANA at 1 2 3 4 5 10 12	52.4
2'F-ANA at 1 2 3 7 8 9 12	453
2'F-ANA at 8 10 11 12 13 14 15	101
2'F-ANA at 1 4 8 9 11 12 14 15	56.2
2'F-ANA at 4 6 7 11 13 14 15	112
2'F-ANA at 2 5 6 8 9 11 13 14	47
2'F-ANA at 1 2 3 5 10 11 13 15	97.8
2'F-ANA at 2 5 6 7 8 9 11 13 14	45.9
2'F-ANA at 1 4 7 8 9 10 12	57.8
2'F-ANA at 1 6 9 10 11 13 14 15	79.3
2'F-ANA at 1 2 4 10 12 13	55.7
2'F-ANA at 1 2 3 4 5 9 10 12 14	42.1
2'F-ANA at 1 3 4 6 8 10	70.7
2'F-ANA at 1 2 3 5 10 11 13 14	45.1
2'F-ANA at 4 5 8 9 11 14	47.7

Sample 4
Target: Histone acetyltransferase KAT6A, winged helix 2, GST fusion (KAT6A, Homo sapiens, UniProt Q92794, residues 85-181)
Technique: protein binding microarray
Molecule type: double-stranded DNA, one strand shown
Medium: in vitro
Tested at: not given
Notes: 8-mer, flanks averaged, mean of 2 arrays, mostly near background
Baseline: not given
Direction: higher = stronger binding
Target sequence (chain): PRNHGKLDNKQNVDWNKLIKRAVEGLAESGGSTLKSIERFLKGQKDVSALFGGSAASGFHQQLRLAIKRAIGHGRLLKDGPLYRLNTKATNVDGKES
Oligonucleotide	E-score
TGGTTGAA	-0.0343
ATGCCTGA	0.0665
TCCTCGAA	-0.14
CATGATAC	0.0344
CAGATAAA	-0.0119
ATCCAAGC	-0.109
ACAACTAC	-0.257
GTGAGTTA	0.0291
AAAAATGT	-0.0527
AGGCGCCA	-0.0254
AAGAGATC	-0.205
AAGGATAC	-0.0893
AAAAAGCT	0.0425
AGTGGAAG	-0.0125
CTGTACCC	0.108
TCCCGGAA	0.181
CGGGACCA	-0.0169

Sample 5
Target: Protein C-ets-1 (ETS1, Homo sapiens, UniProt P14921, residues 1-441, Y397A, full length assumed)
Technique: protein-binding microarray
Molecule type: double-stranded DNA, one strand shown
Medium: in vitro
Tested at: not given
Notes: k-mer, scored over probes, only values ≥0.25
Direction: higher = stronger binding
Residues (chain): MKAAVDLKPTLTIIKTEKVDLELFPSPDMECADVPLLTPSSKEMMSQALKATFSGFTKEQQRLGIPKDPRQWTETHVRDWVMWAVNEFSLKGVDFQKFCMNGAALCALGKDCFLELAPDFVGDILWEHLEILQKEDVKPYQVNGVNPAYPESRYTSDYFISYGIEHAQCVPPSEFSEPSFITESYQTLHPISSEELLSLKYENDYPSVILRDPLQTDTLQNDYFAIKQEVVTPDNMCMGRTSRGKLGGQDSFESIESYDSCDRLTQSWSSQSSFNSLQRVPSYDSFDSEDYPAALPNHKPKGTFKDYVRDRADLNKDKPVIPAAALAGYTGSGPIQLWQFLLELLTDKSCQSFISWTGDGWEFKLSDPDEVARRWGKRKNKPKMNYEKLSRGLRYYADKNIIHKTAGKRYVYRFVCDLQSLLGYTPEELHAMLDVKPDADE
Oligonucleotide	E-score
CGGCGCGC	0.263
CCCAACAA	0.302
TGACGGCA	0.263
GTGCCGGA	0.29
GGGCGGAA	0.279
GTATACAA	0.266
ACAAAACG	0.41
CAAATACA	0.299
ACTTCCGC	0.482
AAATACAA	0.27
TCCGGAAA	0.348
CCGGATAC	0.315
CATTTGTA	0.285
CCGGCAAA	0.297
GGATGACA	0.252
CATTTGTC	0.293
CCCGGAAA	0.328
CGCCCCGC	0.261
ACCGCAAC	0.266

Sample 6
Target: Interferon regulatory factor 7, full length, phosphomimetic (IRF7, Homo sapiens, UniProt Q92985, residues 1-503, S101K/S471D/S472D/S475D/S476D/S477D/S483D/S484D/S487D)
Technique: protein-binding microarray
Molecule type: double-stranded DNA, one strand shown
Medium: in vitro
Tested at: 250 nM
Notes: 60-bp whole probe
With: salmon DNA 0.4 mg/ml
Baseline: random background probes
Direction: higher = stronger binding
All sequences stand within: GCCTAGCAC … GTCTTGATTCGCTTGACGCTGCTG
Residues (chain): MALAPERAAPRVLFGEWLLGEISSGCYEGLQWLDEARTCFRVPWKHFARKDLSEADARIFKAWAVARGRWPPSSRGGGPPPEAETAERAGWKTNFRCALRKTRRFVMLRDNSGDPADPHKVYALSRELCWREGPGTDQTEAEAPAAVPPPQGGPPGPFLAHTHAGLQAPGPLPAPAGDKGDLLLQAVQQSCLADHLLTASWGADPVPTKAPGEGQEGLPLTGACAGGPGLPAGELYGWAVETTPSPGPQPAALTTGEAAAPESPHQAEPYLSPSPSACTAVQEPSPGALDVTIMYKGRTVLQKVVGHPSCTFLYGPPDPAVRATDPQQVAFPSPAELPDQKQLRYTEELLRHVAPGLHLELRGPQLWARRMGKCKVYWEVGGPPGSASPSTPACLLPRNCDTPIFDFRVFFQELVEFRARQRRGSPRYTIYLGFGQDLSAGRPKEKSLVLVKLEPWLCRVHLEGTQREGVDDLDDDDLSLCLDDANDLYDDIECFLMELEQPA
Oligonucleotide	log fluorescence
TTAGGTTTCGGTCTCGGGTAGTGCTAG	7.67 z-score
TTAGGTTTTCTTTTCCTTTAGTGCTAG	3.22 z-score
TTAGGTATCTGTCTCGGTTAGTGCTAG	0.639 z-score
TTAGATTTCGAGTATCGATTAGTGCTA	1.62 z-score
GACGGTATCGGTATCGGGGCGTGCTAG	1.03 z-score
GTGTTTTCACTTTTCCTACAGTGCTAG	3.86 z-score
TTTTATGAAGGCCGGGGAGGGTGCTAG	0.446 z-score
TTAGGTTCCGACACTGGGTTAGTGCTA	0.132 z-score
TTAGATTTCACTATCGATTAGTGCTAG	1.04 z-score
TTAGGTCTCCTTTTCCTTCAGTGCTAG	2.14 z-score
GACGGACTGGGACTGCGGACGTGCTAG	-0.771 z-score
CTAGGTTTCGACTATCGGTTAGTGCTA	6.55 z-score
GACGGTATCGACTTTCGGCACGTGCTA	0.883 z-score
TCATATACCCATGTAGAACTGTGCTAG	0.738 z-score
TTAGATATCACTTTCGATTAGTGCTAG	2.65 z-score
TTAGATTTCGGGTTGCGATTAGTGCTA	3.11 z-score
TTCGGTTTCGACACTGGGTTAGTGCTA	4.37 z-score

Sample 7
Target: PABPC1L2, full length, GST fusion (mouse, UniProt A0ABA7IW68)
Technique: RNAcompete
Molecule type: RNA
Medium: in vitro
Tested at: 20 nM
Notes: 7-mer, probes averaged, single round
Baseline: mean of 7-mers
Direction: higher = stronger binding
Target sequence (chain): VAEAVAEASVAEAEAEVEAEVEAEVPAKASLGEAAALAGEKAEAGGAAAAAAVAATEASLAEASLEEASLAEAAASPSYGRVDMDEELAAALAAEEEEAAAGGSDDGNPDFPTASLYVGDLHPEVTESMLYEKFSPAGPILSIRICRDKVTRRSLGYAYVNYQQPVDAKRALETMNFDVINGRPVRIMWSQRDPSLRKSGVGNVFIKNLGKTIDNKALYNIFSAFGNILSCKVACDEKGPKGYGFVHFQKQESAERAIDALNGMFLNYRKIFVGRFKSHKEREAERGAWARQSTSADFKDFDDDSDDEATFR
Oligonucleotide	7-mer Z-score
UAAAAGU	2.36
UAAUGUA	-0.13
GCCAGUU	-0.295
UCAGAAG	-0.144
CGGCUGG	-0.13
CUCUCUU	-0.298
CCUAUCU	-0.22
UAUGUGC	-0.0319
AUACGGU	-0.195
UGCUCAA	-0.101
CCGUAGU	-0.454
GAACUUG	-0.204
CGUGUAA	0.173
CGGGUCG	0.0116
GAGCGUA	-0.191
GAAACAC	1.16
CUAUGGG	-0.0264
CACUACG	-0.215
CCCCUAU	-0.371
CUCACAC	-0.394
ACGGAUA	0.106
CGCUCCA	-0.208

Repeated from above (sample 5):
Oligonucleotide	E-score
CGGCGCGC	0.263
CCCAACAA	0.302
TGACGGCA	0.263
GTGCCGGA	0.29
GGGCGGAA	0.279
GTATACAA	0.266
ACAAAACG	0.41
CAAATACA	0.299
ACTTCCGC	0.482
AAATACAA	0.27
TCCGGAAA	0.348
